Published values gathered from unrelated publications.
Each numbered part is a random draw from the data of one study; scales do not carry over between parts. Changes are numbered by the printed parent chain.

Set 1
Target: FOSL2, bZIP domain (human)
Method: DHFR protein complementation
Sample: yeast
Setting: single substitutions, most at no-binding floor
Baseline: wild-type JUN-FOS pair
Reading: higher = stronger binding
Measurement: binding fitness
Starting sequence: JUN, bZIP domain (human); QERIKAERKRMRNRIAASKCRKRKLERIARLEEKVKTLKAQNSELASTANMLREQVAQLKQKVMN; partner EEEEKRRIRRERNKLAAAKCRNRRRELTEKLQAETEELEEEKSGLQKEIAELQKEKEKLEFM
N42R: -0.139 natural log
M51S: 0.0625 natural log
S43K: 0.239 natural log
S43Y: -0.038 natural log
R53F: -0.754 natural log
E33S: -0.0644 natural log
R53T: -0.472 natural log
T48R: 0.124 natural log
L31D: -0.585 natural log
A46E: 0.000514 natural log
A57K: 0.155 natural log
L31F: -0.113 natural log
S43N: 0.0309 natural log
S43C: 0.0236 natural log
A49Y: -0.236 natural log
T48Q: 0.104 natural log
E33V: -0.143 natural log
A49F: -0.619 natural log

Set 2
Target: UBE2U UBC core domain (UniProt Q5VVX9)
Method: yeast two-hybrid
Sample: yeast
Setting: mostly zero background
Baseline: not given
Reading: higher = stronger interaction
Measurement: lacZ reporter activity
B1: NSMCE1 RING domain (UniProt Q8WV22); chain RETYPDAVKICNICHSLLIQGQSCETCGIRMHLPCVAKYFQSNAEPRCPHCNDYWPHEIPKV
B2: MSL2 RING domain (UniProt Q9HCI7); chain LLPYFRQSLSCCVCGHLLQDPIAPTNSTCQHYVCKTCKGKKMMMKPSCSWCKDYEQFEENKQ
B3: RNF175 RING domain (UniProt Q8N4F7); chain LPTRSLSDNICAVCGQKIIVELDEEGLIENTYQLSCNHVFHEFCIRGWCIVGKKQTCPYCKEKVDLKRMIS
B4: RNF5 RING domain (UniProt Q99942); chain ERGGAGATFECNICLETAREAVVSVCGHLYCWPCLHQWLETRPERQECPVCKAGISREKVVP
B5: RNF32 RING domain (UniProt Q9H0A6); chain SLLQGDSVQPCPICKEEFELRPQVLLSCSHVFHKACLQAFEKFTNKKTCPLCRKNQYQTRVIH
B6: TRIM52 RING domain (UniProt Q96A61); chain PMQTLQEEAVCAICLDYFKDPVSISCGHNFCRGCVTQLWSKEDEEDQNEEEDEWEEEEDEEAV
B7: RNF150 RING domain (UniProt Q9ULK6); chain DKETESDFDNCAVCIEGYKPNDVVRILPCRHLFHKSCVDPWLLDHRTCPMCKMNILKALGIP
B8: TRIM38 RING domain (UniProt O00635); chain STKKMMEEATCSICLSLMTNPVSINCGHSYCHLCITDFFKNPSQKQLRQETFCCPQCRAPFHMDSLRP
B9: RNF14 RING domain (UniProt Q9UBS8); chain IKCFNSKLFLCSICFCEKLGSECMYFLECRHVYCKACLKDYFEIQIRDGQVQCLNCPEPKCPSVATPGQVK
B10: ANKIB1 RING domain (UniProt Q9P2G1); chain LSPGDLDTSLCDICMCSISVFEDPVDMPCGHDFCRGCWESFLNLKIQEGEAHNIFCPAYDCFQLVPVDIIE
B11: PEX2 RING domain (UniProt P28328); chain DNTLATSGKECALCGEWPTMPHTIGCEHIFCYFCAKSSFLFDVYFTCPKCGTEVHSLQPLK
B12: TRIM35 RING domain (UniProt Q9UPQ4); chain PSRSFKEELLCAVCYDPFRDAVTLRCGHNFCRGCVSRCWEVQVSPTCPVCKDRASPADLRT
B13: TRIM15 RING domain (UniProt Q9C019); chain SLKVVHELPACTLCAGPLEDAVTIPCGHTFCRLCLPALSQMGAQSSGKILLCPLCQEEEQAETPMA
B14: RFPL2 RING domain (UniProt O75678); chain MAALFQEASSCPVCSDYLEKPMSLECGCAVCLKCINSLQKEPHGEDLLCCCSSMVSRKNKIRR
Residues (chain): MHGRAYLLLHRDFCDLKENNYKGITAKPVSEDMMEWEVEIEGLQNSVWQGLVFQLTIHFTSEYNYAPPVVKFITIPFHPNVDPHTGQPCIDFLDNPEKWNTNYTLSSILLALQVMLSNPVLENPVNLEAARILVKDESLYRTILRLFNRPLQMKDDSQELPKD
LKQVSIRENCCSLCCDEVADTQLKPCGHSDLCMDCALQLETCPLCRKEIVSRIRQI (RSPRY1 RING domain (UniProt Q96DX4)): 0
B1 (NSMCE1 RING domain): 13200
B2 (MSL2 RING domain): 10100
B3 (RNF175 RING domain): 0
B4 (RNF5 RING domain): 12500
KIKDLNEHIVCCLCAGYFVDATTITECLHTFCKSCIVKYLQTSKYCPMCNIKIHETQPLL (PCGF1 RING domain (UniProt Q9BSM1)): 8720
B5 (RNF32 RING domain): 0
B6 (TRIM52 RING domain): 0
B7 (RNF150 RING domain): 14700
B8 (TRIM38 RING domain): 5940
B9 (RNF14 RING domain): 5790
B10 (ANKIB1 RING domain): 0
B11 (PEX2 RING domain): 8240
B12 (TRIM35 RING domain): 10500
B13 (TRIM15 RING domain): 0
B14 (RFPL2 RING domain): 0

Set 3
Target: CCND2, cyclin fold, Cln2 fusion (human)
Method: yeast growth competition, sequencing
Sample: yeast
Setting: weak parent motif
Baseline: not given
Reading: higher = stronger binding
Measurement: normalised enrichment score
Starting sequence: PKN2 docking peptide (human); VSAVQKLDFSDTM; partner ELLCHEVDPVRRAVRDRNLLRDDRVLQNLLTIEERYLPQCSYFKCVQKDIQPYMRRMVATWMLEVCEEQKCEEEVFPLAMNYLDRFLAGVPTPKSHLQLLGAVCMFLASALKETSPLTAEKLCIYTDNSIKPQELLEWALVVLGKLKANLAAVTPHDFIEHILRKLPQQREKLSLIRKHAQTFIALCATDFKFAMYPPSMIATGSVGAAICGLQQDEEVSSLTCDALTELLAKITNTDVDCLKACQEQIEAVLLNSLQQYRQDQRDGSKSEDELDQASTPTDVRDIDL
K6W: 0.379
V4A: 0.357
T12R: 0.571
F9N: 0.0222
V1Y: 1.03
T12P: 0.899
M13I: 0.84
S2R: 0.914
T12F: 0.716
S2L: 0.482
D8W: 0.36
K6M: 0.489
D8G: 0.163
S2W: 0.238
L7N: 0.094
F9P: -0.278
S10R: 0.702
K6A: 0.277
F9G: 0.163
V1D: -0.0848
V1Q: 0.736

Set 4
Target: RING finger protein unkempt homolog, zinc fingers 1-6, GST-SBP tag (UNK, Homo sapiens, UniProt Q9C0B0, residues 30-357)
Method: RNA Bind-n-Seq
Molecule type: RNA
Sample: in vitro
Concentration: not given
Setting: RNA with constant flanks, ends assumed
Baseline: input RNA pool
Reading: higher = stronger binding
Measurement: bound/input enrichment
Constant ends, left off below: GGGAGUUCUACAGUCCGACGAUC … CAACAGAGGAUUGAGCAUCA
Construct (chain): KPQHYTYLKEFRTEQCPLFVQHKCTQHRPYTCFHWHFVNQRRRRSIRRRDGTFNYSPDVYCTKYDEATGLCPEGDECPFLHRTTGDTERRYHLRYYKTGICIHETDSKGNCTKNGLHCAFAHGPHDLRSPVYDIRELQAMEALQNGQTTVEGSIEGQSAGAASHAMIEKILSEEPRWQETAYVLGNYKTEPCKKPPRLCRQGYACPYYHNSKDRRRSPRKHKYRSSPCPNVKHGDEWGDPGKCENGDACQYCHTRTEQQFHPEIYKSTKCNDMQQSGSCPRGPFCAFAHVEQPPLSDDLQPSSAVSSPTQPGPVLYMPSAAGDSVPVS
UUGCAUGGAGACAUUCCACAGAAGCAAAGGGAAAUCACCCUGAAAGGUUUUAGAAAUGGCCGUUUUGGAGUUUUGGUGGCAACCAAUGUUGCUGCACGUGGGUUAGACAUCCCUGAGGUU: 0.222 ratio
UUUGCUAGCCAAGGAAAGUAAAAUGUGAUUUUGUAACUGCACUAAACAUUUGUCAUGCUGCCGUUGCCAGCCCAGAAUAUUAGAAGUUACAAGACUGAUUUAAACCGUCUCUGAUUUAAU: 0.122 ratio
CUGAGGAUACCACUGAAGAGACCUUAAAAGAAUCAUUUGAGGGCUCUGUUCGUGCAAGAACCGUCACUGAUCGGGAAACUGGUUCUUCCAAAGGGUUUGGUUUUGUAGACUUUAAUAGUG: 0.662 ratio
CAUGACAGCAACACCGAUAUGUUUCAGAUUGGCCGGUCGACUGAAAGCCCCAUUGAUUUUGCCGUAACUGACACGGUUCCUGGAAGUCAAAGUAAUUCUGAUACACAGUCAGUACAAAGC: 0.0701 ratio
CAGCUGUGGGAAACGAGCUUUGCUUUUAUAUAUAUAUAUAUAUAUAUAUAUAUAUAUUUAAACCGGAUACUUUUAUAUGAUGGGUGCUUUGAGUGUGAAUGCAGCAGGCUCUAUCUCAGA: 1.1 ratio
CAUCAUCGGGUGGGCGAGACAGCCCCACCCAAUGCCUACACUGUCACUGACCUAGUGGAGUACCGCAUCGUGAUCCAGCAGCUCUCAAAUGGCAAAUGGGUCCCCUUUGAUGGCGAUGAC: 0.0603 ratio
UCUCUUCUCUUAAGUUAUGGUGCAGACCCAACACUGCUCAAUUGUCACAAUAAAAGUGCUACCGACUUGGCUCCCACACCACAGUUAAAAGAAAGAUUAGCAUAUGAAUUUAAAGGCCAC: 5.81 ratio
UCCACGGGAUUUAACAAAUGUUCAAAGACAUAUAUGCAUCAUUACACUCCUAUAACACAACCGUUUUACUGUCUUAAGAAUCAUGCGUAGCCAGGCAGUGGUGUACACCUUUAAUCCCAG: 0.282 ratio
CAGCUAGAAGAGCUGGCUUUUAGGGUCAUGCGUCUUCAGGAUGAGCUGGUCACCUUGCGUCCCGAGUGUACAAACCUGUACCGGAAGGGUCAUUUCACUUCACUUGAAUUGGUUCCACCC: 0.0904 ratio
AGAUUCAAACCUGUGGUACCAUGGCCUCAUGUUGAAGGAGUAGAAGUGGACUUAGAGUCUAUCCGAAGAAUAAACAAGGCCAAAAAUGAACAAGAGCACCAUGCUGGAGGAGAUUCCCAG: 0.261 ratio
UUCGGUGUUAUCCGGUCACUCAUGGCCUUUAGGCUGACAGGUGGCACCAAAGACUACAUUGCCGUUGGCAGUGACUCUGGUCGAAUUGUUAUUUUGGAAUACCAGCCAUCUAAGAAUAUG: 0.136 ratio

Set 5
Target: ABI1, truncated, D143A, DHFR fusion (Arabidopsis thaliana)
Method: DHFR PCA, deep sequencing
Sample: yeast
Setting: methotrexate growth selection, single substitutions
Added: (+)-ABA 0.032 µM
Baseline: wild-type fitted maximum
Reading: higher = stronger binding
Measurement: relative binding score
Starting sequence: PYL1, truncated, DHFR fusion (Arabidopsis thaliana); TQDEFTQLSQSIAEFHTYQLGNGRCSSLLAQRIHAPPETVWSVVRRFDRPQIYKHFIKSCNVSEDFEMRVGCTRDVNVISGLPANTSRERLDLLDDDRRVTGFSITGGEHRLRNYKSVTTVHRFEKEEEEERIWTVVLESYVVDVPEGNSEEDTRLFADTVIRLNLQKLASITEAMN
L112Y: 1.37%
E127T: 37%
S26G: 14.3%
V145H: -9.64%
D3C: 17.9%
H16N: -3.59%
F103E: 2.9%
K58Y: 3.03%
T1M: 22.5%
S150C: 14.6%
L93F: 11%
L93D: -2.23%
M176N: -2.75%
L28I: 64%
S140A: 3.49%
T154C: -3.62%
F56P: 2.26%
I133A: 42.5%
T119N: 4.76%
H34A: 52.7%
Y53I: -3.19%
D96Y: 7.52%
P50V: -5.58%
A30F: 18.6%
T120G: -1.84%

Set 6
Partner: ARF13 (Arabidopsis thaliana, UniProt Q9FX25)
Sequence of UniProt Q9FX25 (whole entry, looked up): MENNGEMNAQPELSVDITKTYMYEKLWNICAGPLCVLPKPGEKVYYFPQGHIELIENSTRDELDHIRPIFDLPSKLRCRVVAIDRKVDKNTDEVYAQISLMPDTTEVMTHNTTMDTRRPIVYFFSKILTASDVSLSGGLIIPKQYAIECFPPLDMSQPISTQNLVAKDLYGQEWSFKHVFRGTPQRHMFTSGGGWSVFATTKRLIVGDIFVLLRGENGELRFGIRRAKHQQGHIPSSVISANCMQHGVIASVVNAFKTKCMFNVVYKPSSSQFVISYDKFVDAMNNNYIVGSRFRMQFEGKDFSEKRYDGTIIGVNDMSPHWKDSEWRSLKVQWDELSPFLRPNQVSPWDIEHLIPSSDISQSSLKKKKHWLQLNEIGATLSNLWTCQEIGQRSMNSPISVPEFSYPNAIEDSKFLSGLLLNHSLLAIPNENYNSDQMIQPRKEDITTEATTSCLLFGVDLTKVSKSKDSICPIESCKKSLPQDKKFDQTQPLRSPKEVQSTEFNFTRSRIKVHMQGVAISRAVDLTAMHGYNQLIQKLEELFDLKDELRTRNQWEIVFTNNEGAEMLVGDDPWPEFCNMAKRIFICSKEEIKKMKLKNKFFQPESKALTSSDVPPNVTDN
Method: two-hybrid
Baseline: out of 4 tests
Reading: higher = firmer interaction
Measurement: positive tests
B15: IAA28 (Arabidopsis thaliana, UniProt Q9XFM0); chain MEEEKRLELRLAPPCHQFTSNNNINGSKQKSSTKETSFLSNNRVEVAPVVGWPPVRSSRRNLTAQLKEEMKKKESDEEKELYVKINMEGVPIGRKVNLSAYNNYQQLSHAVDQLFSKKDSWDLNRQYTLVYEDTEGDKVLVGDVPWEMFVSTVKRLHVLKTSHAFSLSPRKHGKE
B16: ARF6 790-935 (Arabidopsis thaliana, UniProt Q9ZTX8); chain SENPQSNTFVKVYKSGSFGRSLDISKFSSYHELRSELARMFGLEGQLEDPVRSGWQLVFVDRENDVLLLGDDPWPEFVSSVWCIKILSPQEVQQMGKRGLELLNSAPSSNNVDKLPSNGNCDDFGNRSDPRNLGNGIASVGGSFNY
B17: IAA18 (Arabidopsis thaliana, UniProt O24408); chain MEGYSRNGEISPKLLDLMIPQERRNWFHDEKNSVFKTEEKKLELKLGPPGEEDDDESMIRHMKKEPKDKSILSLAGKYFSPSSTKTTSHKRTAPGPVVGWPPVRSFRKNLASGSSSKLGNDSTTSNGVTLKNQKCDAAAKTTEPKRQGGMFVKINMYGVPIGRKVDLSAHNSYEQLSFTVDKLFRGLLAAQRDFPSSIEDEKPITGLLDGNGEYTLTYEDNEGDKMLVGDVPWQMFVSSVKRLRVIKTSEISSALTYGNGKQEKMRR
B18: ARF10 575-693 (Arabidopsis thaliana, UniProt Q9SKN5); chain LQGLETGHCKVFMESEDVGRTLDLSVIGSYQELYRKLAEMFHIEERSDLLTHVVYRDANGVIKRIGDEPFSDFMKATKRLTIKMDIGGDNVRKTWITGIRTGENGIDASTKTGPLSIFA
B15 (IAA28): 0
B16 (ARF6 790-935): 0
B17 (IAA18): 0
B18 (ARF10 575-693): 0

Some of these lines once more (set 1):
R53F: -0.754 natural log
E33S: -0.0644 natural log
R53T: -0.472 natural log
T48R: 0.124 natural log
L31D: -0.585 natural log
A46E: 0.000514 natural log
A57K: 0.155 natural log
L31F: -0.113 natural log
S43N: 0.0309 natural log
